# Published values pooled from the literature.
# Organism: Acinetobacter baumannii
SMILES,assay,test system,setting,how to read,MIC
CCCCCCCC(=O)N[C@@H](CCCCN)C(=O)N[C@@H](CCCCN)C(=O)N[C@@H](C)C(=O)N[C@@H](C)C(=O)N[C@@H](CCCCN)C(=O)N[C@@H](C)C(=O)N[C@@H](C)C(=O)N[C@@H](CCCCN)C(=O)N[C@@H](CCCCN)C(=O)N1CCC[C@H]1C(=O)N[C@@H](C)C(=O)N[C@@H](CCCCN)C(=O)N[C@@H](C)C(=O)N[C@@H](C)C(=O)N[C@@H](CCCCN)C(N)=O,broth microdilution,ATCC 17978,"18 h, 37 °C, compound alone",,> 80 µM
CC(C)[C@H](NC(=O)[C@H](C)N)C(=O)N[C@@H](C)C(=O)N[C@H](C(=O)N[C@H](C(=O)NCC(=O)N[C@@H](CCC(N)=O)C(=O)N[C@@H](C)C(=O)N[C@@H](C)C(=O)N[C@H](C(=O)N[C@H](C(=O)N[C@H](C(=O)N[C@@H](CCCCN)C(N)=O)C(C)C)C(C)C)[C@@H](C)O)C(C)C)C(C)C,,"KCCM 40203, Mueller-Hinton broth","16 h, 37 °C",growth inhibition over 99%,> 64 µM
NC[C@H]1O[C@H](O[C@H]2[C@H](O)[C@@H](O[C@H]3O[C@H](CO)[C@@H](O)[C@H](N)[C@H]3O)[C@H](N)C[C@@H]2N)[C@H](N)C[C@@H]1O,,carbapenem-resistant clinical isolate,,,> 8 µg/mL
CC[C@H](C)[C@H](NC(=O)[C@H](CC(C)C)NC(=O)[C@H](CCCCN)NC(=O)[C@@H](NC(=O)[C@H](C)NC(=O)[C@H](CCC(=O)O)NC(=O)[C@H](Cc1c[nH]cn1)NC(=O)[C@@H](NC(=O)[C@H](CCCCN)NC(=O)[C@H](CCC(N)=O)NC(=O)[C@H](Cc1ccccc1)NC(=O)[C@@H](NC(=O)[C@H](CCCCN)NC(=O)[C@H](CCCCN)NC(=O)[C@H](CC(C)C)NC(=O)[C@H](C)N)C(C)C)[C@@H](C)CC)[C@@H](C)CC)C(N)=O,CLSI broth microdilution,ATCC 19606,"18 h, 37 °C",,4 µM
CC[C@@H](C)[C@@H](N)C(=O)N[C@@H](C(=O)N[C@H](Cc1ccc(O)cc1)C(=O)N[C@@H](C(=O)N[C@H](CCN)C(=O)N[C@H](CC(C)C)C(=O)N[C@H](CO)C(=O)N[C@H](CCN)C(=O)N[C@@H](C(=O)N[C@H](CCN)C(=O)N[C@H](Cc1c[nH]cn1)C(=O)N[C@H](CCN)C(=O)N[C@H](C)C(=O)N[C@H](CCN)C(=O)N[C@H](CCN)C(N)=O)[C@H](C)CC)[C@H](C)CC)[C@H](C)CC,broth microdilution,"CDC 0274, Mueller-Hinton broth",,,4 µg/mL
CCCCCC(=O)N[C@@H](CCCNC(=N)N)C(=O)N[C@@H](CCCNC(=N)N)C(=O)N[C@@H](CCCNC(=N)N)C(=O)N[C@@H](CCCNC(=N)N)C(=O)N[C@H](C(=O)N[C@@H](CC(C)C)C(=O)N[C@H](C(=O)N[C@@H](CCCCN)C(=O)N[C@@H](CCCCN)C(=O)N[C@H](C(=O)N[C@@H](CC(C)C)C(=O)N[C@@H](CCCCN)C(=O)N[C@@H](CC(C)C)C(=O)N[C@@H](CCCCN)C(=O)N[C@@H](CO)C(=O)N[C@@H](CO)C(=O)N[C@@H](C)C(=O)N[C@@H](Cc1ccc(O)cc1)C(N)=O)C(C)C)[C@@H](C)CC)[C@@H](C)CC,broth microdilution,ATCC 17978,highest value reported,,64 µM
CC[C@H](C)[C@H](NC(=O)CNC(=O)[C@H](CC(=O)O)NC(=O)[C@H](CCCNC(=N)N)NC(=O)[C@@H](NC(=O)[C@H](CC(N)=O)NC(=O)[C@H](CCCNC(=N)N)NC(=O)CNC(=O)[C@@H](NC(=O)[C@H](CCCCN)NC(=O)[C@H](CCC(=O)O)NC(=O)[C@@H](NC(=O)[C@H](CCCCN)NC(=O)[C@H](CCCCN)NC(=O)[C@H](Cc1ccccc1)NC(=O)[C@@H](NC(=O)[C@H](CCCCN)NC(=O)[C@H](Cc1c[nH]c2ccccc12)NC(=O)[C@@H](N)CCCNC(=N)N)[C@@H](C)CC)[C@@H](C)CC)C(C)C)C(C)C)C(=O)N[C@H](C(=O)N[C@@H](CCCCN)C(=O)N[C@@H](C)C(=O)NCC(=O)N1CCC[C@H]1C(=O)N[C@@H](C)C(=O)N[C@H](C(=O)N[C@@H](C)C(=O)N[C@H](C(=O)N[C@H](C(=O)NCC(=O)N[C@@H](CCC(N)=O)C(=O)N[C@@H](C)C(=O)N[C@@H](C)C(=O)N[C@H](C(=O)N[C@@H](C)C(=O)N[C@@H](C)C(=O)N[C@@H](CCCCN)C(N)=O)[C@@H](C)O)C(C)C)C(C)C)C(C)C)[C@@H](C)CC,,"KCCM 40203, Mueller-Hinton broth","16 h, 37 °C",growth inhibition over 99%,2 µM
CC[C@H](C)[C@H](NC(=O)[C@H](CC(C)C)NC(=O)[C@H](CC(C)C)NC(=O)[C@H](CC(C)C)NC(=O)[C@@H](NC(=O)[C@@H](NC(=O)[C@H](CCCCN)NC(=O)[C@H](CCCCN)NC(=O)[C@H](CCCCN)NC(=O)[C@H](CCCCN)NC(=O)[C@H](CC(C)C)NC(=O)[C@H](CCCNC(=N)N)NC(=O)[C@H](CO)NC(=O)[C@@H](N)CO)[C@@H](C)CC)C(C)C)C(=O)N[C@@H](CO)C(=O)N[C@@H](CCCCN)C(=O)N[C@@H](CCCCN)C(=O)N[C@@H](CCCCN)C(=O)N[C@@H](CCCCN)C(N)=O,broth microdilution,ATCC 17978,highest value reported,,8 µM
CC[C@H](C)[C@H](NC(=O)[C@H](CC(C)C)NC(=O)[C@H](CCCNC(=N)N)NC(=O)[C@@H](N)CCCNC(=N)N)C(=O)N[C@@H](CC(C)C)C(=O)N[C@H](C(=O)N[C@@H](CCCCN)C(=O)N[C@H](C(=O)NCC(=O)N1CCC[C@H]1C(=O)N[C@H](C(=O)N[C@H](C(=O)N[C@@H](Cc1ccc(O)cc1)C(=O)N[C@@H](CCCCN)C(=O)N[C@@H](Cc1ccc(O)cc1)C(=O)N[C@@H](Cc1ccccc1)C(=O)N[C@@H](CCCCN)C(=O)N[C@@H](CCCCN)C(=O)N[C@@H](CCC(N)=O)C(=O)N[C@@H](CC(C)C)C(=O)N[C@@H](CCCCN)C(=O)N[C@@H](CCCCN)C(=O)N[C@@H](CC(C)C)C(N)=O)[C@@H](C)CC)[C@@H](C)CC)[C@@H](C)O)[C@@H](C)O,,"ATCC BAA1605, Mueller-Hinton broth",24 h,,2 µM
CC[C@H](C)[C@H](NC(=O)CNC(=O)[C@H](CC(=O)O)NC(=O)[C@H](CCCNC(=N)N)NC(=O)[C@@H](NC(=O)[C@H](CC(N)=O)NC(=O)[C@H](CCCNC(=N)N)NC(=O)CNC(=O)[C@@H](NC(=O)[C@H](CCCCN)NC(=O)[C@H](CCC(=O)O)NC(=O)[C@@H](NC(=O)[C@H](CCCCN)NC(=O)[C@H](CCCCN)NC(=O)[C@H](Cc1ccccc1)NC(=O)[C@@H](NC(=O)[C@H](CCCCN)NC(=O)[C@H](Cc1c[nH]c2ccccc12)NC(=O)[C@@H](N)CCC(=O)O)[C@@H](C)CC)[C@@H](C)CC)C(C)C)C(C)C)C(=O)N[C@H](C(=O)N[C@@H](CCCCN)C(=O)N[C@@H](C)C(=O)NCC(=O)N1CCC[C@H]1C(=O)N[C@@H](C)C(=O)N[C@H](C(=O)N[C@@H](C)C(=O)N[C@H](C(=O)N[C@H](C(=O)NCC(=O)N[C@@H](CCC(N)=O)C(=O)N[C@@H](C)C(=O)N[C@@H](C)C(=O)N[C@H](C(=O)N[C@H](C(=O)N[C@H](C(=O)N[C@@H](CCCCN)C(N)=O)C(C)C)C(C)C)[C@@H](C)O)C(C)C)C(C)C)C(C)C)[C@@H](C)CC,,"KCCM 40203, Mueller-Hinton broth","16 h, 37 °C",growth inhibition over 99%,16 µM
CN1C(=O)Cc2ccc(F)c(CCNCC[C@H]3CN(c4ccc5c(n4)NC(=O)CO5)C(=O)O3)c21,,ATCC 19606,,,0.06 µg/mL
CC(C)C[C@@H](NC(=O)CNC(=O)[C@@H](CCCCN)NC(=O)[C@@H](CC(C)C)NC(=O)[C@@H](CCCCN)NC(=O)[C@@H](CCCNC(=N)N)NC(=O)[C@@H](CC(C)C)NC(=O)[C@@H](CC(C)C)NC(=O)[C@@H](CCCNC(=N)N)NC(=O)[C@H](N)CCCNC(=N)N)C(=O)N[C@H](CCCCN)C(=O)N[C@H](CCCCN)C(=O)N[C@H](Cc1ccc(O)cc1)C(=O)N[C@H](CC(C)C)C(=O)N[C@H](Cc1ccc(O)cc1)C(=O)N[C@H](Cc1ccccc1)C(=O)N[C@H](CCCCN)C(=O)N[C@H](CC(C)C)C(=O)N[C@H](CCC(N)=O)C(=O)N[C@H](CC(C)C)C(=O)N[C@H](CC(C)C)C(=O)N[C@H](CCCCN)C(=O)N[C@H](CCCCN)C(N)=O,,"ATCC BAA1605, Mueller-Hinton broth",24 h,,1 µM
CC[C@H](C)[C@H](NC(=O)CN)C(=O)NCC(=O)N[C@@H](CCCCN)C(=O)N[C@@H](Cc1ccccc1)C(=O)N[C@@H](CC(C)C)C(=O)N[C@@H](CCCCN)C(=O)N[C@@H](CCCCN)C(=O)N[C@@H](C)C(=O)N[C@@H](CCCCN)C(=O)N[C@@H](CCCCN)C(=O)N[C@@H](Cc1ccccc1)C(=O)NCC(=O)N[C@@H](CCCCN)C(=O)N[C@@H](C)C(=O)N[C@@H](Cc1ccccc1)C(=O)N[C@H](C(=O)N[C@@H](CCCCN)C(=O)N[C@H](C(=O)N[C@@H](CC(C)C)C(=O)N[C@@H](CCCCN)C(=O)N[C@@H](CCCCN)C(N)=O)[C@@H](C)CC)C(C)C,broth dilution,ATCC 19606,,,< 3.1 µM
CC[C@H](C)[C@H](NC(=O)[C@H](CC(C)C)NC(=O)[C@H](CCCNC(=N)N)NC(=O)[C@@H](N)CCCNC(=N)N)C(=O)N[C@@H](CCCNC(=N)N)C(=O)N[C@@H](CCCCN)C(=O)N[C@@H](CC(C)C)C(=O)N[C@@H](CCCCN)C(=O)NCC(=O)N[C@@H](CC(C)C)C(=O)N[C@@H](CCCCN)C(=O)N[C@@H](CCCCN)C(=O)N[C@@H](Cc1ccc(O)cc1)C(=O)N[C@@H](CC(C)C)C(=O)N[C@@H](Cc1ccc(O)cc1)C(=O)N[C@@H](Cc1ccccc1)C(=O)N[C@@H](CCCCN)C(=O)N[C@@H](CC(C)C)C(=O)N[C@@H](CCC(N)=O)C(=O)N[C@@H](CC(C)C)C(=O)N[C@@H](CC(C)C)C(=O)N[C@@H](CCCCN)C(=O)N[C@@H](CCCCN)C(N)=O,,"ATCC BAA1605, Mueller-Hinton broth",24 h,,2 µM
CC[C@H](C)[C@H](NC(=O)CNC(=O)[C@H](CC(=O)O)NC(=O)[C@H](CCCNC(=N)N)NC(=O)[C@@H](NC(=O)[C@H](CC(N)=O)NC(=O)[C@H](CCCNC(=N)N)NC(=O)CNC(=O)[C@@H](NC(=O)[C@H](CCCCN)NC(=O)[C@H](CCC(=O)O)NC(=O)[C@@H](NC(=O)[C@H](CCCCN)NC(=O)[C@H](CCCCN)NC(=O)[C@H](Cc1ccccc1)NC(=O)[C@@H](NC(=O)[C@H](CCCCN)NC(=O)[C@H](Cc1c[nH]c2ccccc12)NC(=O)[C@@H](N)CCCNC(=N)N)[C@@H](C)CC)[C@@H](C)CC)C(C)C)C(C)C)C(=O)N[C@H](C(=O)N[C@@H](CCCCN)C(=O)N[C@@H](C)C(=O)NCC(=O)N1CCC[C@H]1C(=O)N[C@@H](C)C(=O)N[C@H](C(=O)N[C@@H](C)C(=O)N[C@@H](C)C(=O)N[C@@H](C)C(=O)NCC(=O)N[C@@H](CCC(N)=O)C(=O)N[C@@H](C)C(=O)N[C@@H](C)C(=O)N[C@H](C(=O)N[C@H](C(=O)N[C@H](C(=O)N[C@@H](CCCCN)C(N)=O)C(C)C)C(C)C)[C@@H](C)O)C(C)C)[C@@H](C)CC,,"KCCM 40203, Mueller-Hinton broth","16 h, 37 °C",growth inhibition over 99%,2 µM

# Repeated from above:
SMILES,assay,test system,setting,how to read,MIC
CC(C)C[C@@H](NC(=O)CNC(=O)[C@@H](CCCCN)NC(=O)[C@@H](CC(C)C)NC(=O)[C@@H](CCCCN)NC(=O)[C@@H](CCCNC(=N)N)NC(=O)[C@@H](CC(C)C)NC(=O)[C@@H](CC(C)C)NC(=O)[C@@H](CCCNC(=N)N)NC(=O)[C@H](N)CCCNC(=N)N)C(=O)N[C@H](CCCCN)C(=O)N[C@H](CCCCN)C(=O)N[C@H](Cc1ccc(O)cc1)C(=O)N[C@H](CC(C)C)C(=O)N[C@H](Cc1ccc(O)cc1)C(=O)N[C@H](Cc1ccccc1)C(=O)N[C@H](CCCCN)C(=O)N[C@H](CC(C)C)C(=O)N[C@H](CCC(N)=O)C(=O)N[C@H](CC(C)C)C(=O)N[C@H](CC(C)C)C(=O)N[C@H](CCCCN)C(=O)N[C@H](CCCCN)C(N)=O,,"ATCC BAA1605, Mueller-Hinton broth",24 h,,1 µM
CC[C@H](C)[C@H](NC(=O)CN)C(=O)NCC(=O)N[C@@H](CCCCN)C(=O)N[C@@H](Cc1ccccc1)C(=O)N[C@@H](CC(C)C)C(=O)N[C@@H](CCCCN)C(=O)N[C@@H](CCCCN)C(=O)N[C@@H](C)C(=O)N[C@@H](CCCCN)C(=O)N[C@@H](CCCCN)C(=O)N[C@@H](Cc1ccccc1)C(=O)NCC(=O)N[C@@H](CCCCN)C(=O)N[C@@H](C)C(=O)N[C@@H](Cc1ccccc1)C(=O)N[C@H](C(=O)N[C@@H](CCCCN)C(=O)N[C@H](C(=O)N[C@@H](CC(C)C)C(=O)N[C@@H](CCCCN)C(=O)N[C@@H](CCCCN)C(N)=O)[C@@H](C)CC)C(C)C,broth dilution,ATCC 19606,,,< 3.1 µM
